Measurements of several laboratories.
Protocols differ between the studies behind these lines. ± gives the spread as reported.
Organism: Salmonella typhimurium

Structure (SMILES)	test	system	conditions	scale	measurement	value
COCCN(CCOC)N=O	mutagenicity, Ames plate incorporation	TA1535	150 µg/plate, 3 d, without S9, methanol		revertant colonies per plate	17 ± 4
COc1cccc(-c2n[nH]c(SCc3ccccn3)n2)c1OC	Ames test, plate incorporation	TA1535	1.0 mg/plate, without S9		revertant colonies per plate	14
O=[N+]([O-])c1ccc(N2CCN(CCC(O)c3ccc(F)cc3)CC2)c(C(F)(F)F)c1 (stereo not drawn)	genotoxicity, SOS/umu test	TA1535/pSK1002	0.008 mg/mL, 4 h, with S9, full range		induction factor	1.2
N#C[C@@]1(n2ccc(N)nc2=O)O[C@H](CO)[C@@H](O)[C@H]1O		TA98	1.2 µM, without S9		viability	94%
OC(CCN1CC=C(c2ccc(F)cc2)CC1)c1ccc(F)c2ccccc12 (stereo not drawn)	SOS/umu test	TA1535/pSK1002	0.008 mg/mL, 4 h, without S9, lower range		survival	91.1%
CC(=O)N1CCC(C(=O)N2CCN3C(=O)c4cc(-c5ccccc5)ccc4NC(=O)C3C2)CC1 (stereo not drawn)		TA98	5.0 µg/plate, together with: rat liver S9		revertants per plate	33.5
CNC(=O)c1c(N(C)N=O)ncn1C	mutagenicity, Ames plate incorporation	TA100	2500 µg/plate, without S9, methanol		revertant colonies per plate	119 ± 15
O=[N+]([O-])c1ccc(NC2CCNCC2)c(C(F)(F)F)c1	genotoxicity, SOS/umu test	TA1535/pSK1002	0.25 mg/mL, 4 h, without S9, full range		induction factor	0.5
CN(CC(C)(C)C)N=O	mutagenicity, Ames plate incorporation	TA100	500 µg/plate, without S9, methanol		revertant colonies per plate	167 ± 14
Fc1ccc(C2=CCNCC2)cc1	genotoxicity, SOS/umu test	TA1535/pSK1002	0.016 mg/mL, 4 h, with S9, full range		induction factor	1.2
CC(C)N(C)N=O	mutagenicity, Ames plate incorporation	TA1535	500 µg/plate, 3 d, without S9, methanol		revertant colonies per plate	22.3 ± 8
Cc1cc(C(=O)NC(C)(C)COc2cccc3c2C(N)=NS(=O)(=O)N3)cc(C)n1	Ames test, initial	TA1537	50.0 µg/plate	baseline: solvent control	revertant ratio	1.2
